# Measured values from different studies.
# Numbers after ± are the reported error.
# UniProt P02769, sequence (whole entry, looked up): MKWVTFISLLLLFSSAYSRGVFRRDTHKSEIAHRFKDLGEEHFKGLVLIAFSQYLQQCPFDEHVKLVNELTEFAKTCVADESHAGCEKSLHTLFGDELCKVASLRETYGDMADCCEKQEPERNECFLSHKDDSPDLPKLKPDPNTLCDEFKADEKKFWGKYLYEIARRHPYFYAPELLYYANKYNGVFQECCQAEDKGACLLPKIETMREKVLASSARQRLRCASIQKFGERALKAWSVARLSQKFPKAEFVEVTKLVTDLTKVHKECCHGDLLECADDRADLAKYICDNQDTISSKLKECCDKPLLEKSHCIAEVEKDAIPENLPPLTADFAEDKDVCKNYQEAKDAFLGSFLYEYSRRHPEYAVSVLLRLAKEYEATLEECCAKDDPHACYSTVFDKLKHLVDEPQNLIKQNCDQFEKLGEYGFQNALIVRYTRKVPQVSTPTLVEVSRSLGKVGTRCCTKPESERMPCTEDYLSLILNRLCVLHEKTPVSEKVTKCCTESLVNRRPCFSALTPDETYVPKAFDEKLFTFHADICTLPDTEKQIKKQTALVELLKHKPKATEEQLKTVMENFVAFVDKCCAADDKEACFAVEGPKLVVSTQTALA
# UniProt P08684, sequence (whole entry, unmodified, looked up): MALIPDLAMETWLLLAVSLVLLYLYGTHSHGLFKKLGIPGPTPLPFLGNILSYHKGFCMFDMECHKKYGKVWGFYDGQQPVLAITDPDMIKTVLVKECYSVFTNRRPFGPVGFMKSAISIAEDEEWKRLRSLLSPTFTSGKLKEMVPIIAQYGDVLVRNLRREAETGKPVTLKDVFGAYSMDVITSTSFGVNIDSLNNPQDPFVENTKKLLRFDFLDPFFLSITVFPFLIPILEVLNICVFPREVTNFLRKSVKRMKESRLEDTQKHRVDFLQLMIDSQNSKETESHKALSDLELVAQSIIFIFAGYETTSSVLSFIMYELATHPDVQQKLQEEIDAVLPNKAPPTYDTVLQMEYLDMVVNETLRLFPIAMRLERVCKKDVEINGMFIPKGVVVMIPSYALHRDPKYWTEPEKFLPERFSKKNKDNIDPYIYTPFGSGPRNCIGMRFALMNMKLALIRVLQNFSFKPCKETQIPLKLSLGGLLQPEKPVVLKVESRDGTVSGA
SMILES,target or system,assay,system,conditions,scale,quantity,result
CS(=O)(=O)Nc1ccc(C(=O)O[C@@H](Cc2c(Cl)c[n+]([O-])cc2Cl)c2ccc(OC(F)F)c(OCC3CC3)c2)cc1OCC1CC1,,,"human, plasma","inhaled, 20 µg single dose, single-dose dry powder inhaler",,tmax,4.8 min
CC(=O)[C@H]1CC[C@H]2[C@@H]3CCC4=CC(=O)CC[C@]4(C)[C@H]3CC[C@]12C,"Cytochrome P450 3A4 (CYP3A4, Homo sapiens, UniProt P08684, S18F)",substrate,nanodiscs with CPR,three substrates bound,,NADPH oxidation rate,108 nmol/nmol P450/min
CN(C)Cc1cc(OCCC[18F])ccc1Sc1ccccc1N,SERT,,"male Sprague Dawley rat, PCA-treated, striatum","intravenous, 60 min",,tissue uptake,0.24 ± 0.07 %ID/g
CCCC[P+](CCCC)(CCCC)Cc1ccc(NC(=O)[C@H](Cc2ccc3ccccc3c2)NC(=NC2CCCCC2)NC2CCCCC2)cc1,Leishmania donovani,,intracellular amastigote,,,EC50,31 ± 5 µM
Sc1ncnc2nc[nH]c12,,mitochondrial swelling,BALB/cByJ female mouse liver mitochondria,"30 min, together with: succinate + rotenone",relative to: CaCl2 maximal swelling,EC20,> 400 µM
O=C(c1cccnc1-c1ccncc1)N1CCC(O)(Cc2ccccc2)CC1,,,"healthy human, plasma","oral, 300 mg once daily, day 1, arithmetic mean",,AUCinf,2040 ng·h/mL
O=C(O)c1cn(C2CC2)c2cc(N3CCNCC3)c(F)cc2c1=O,,mitochondrial swelling,BALB/cByJ female mouse liver mitochondria,"30 min, together with: succinate + rotenone",relative to: CaCl2 maximal swelling,EC20,> 400 µM
Cn1c(-c2ccc(C(N)=O)cc2F)nnc1C(C)(C)Oc1c(F)cc(Cl)cc1F,,,"young Japanese subjects, plasma","oral, 10 mg single dose, day 1",,Cmax mean,91.9 ng/mL
CC(C)Cc1ccc(C(C)C(=O)O)cc1 (stereo not shown),,"cytochrome c release, ELISA",BALB/cByJ female mouse liver mitochondria,30 min,relative to: alamethicin maximal release,EC20,> 200 µM
COCCc1ccc(OCC(O)CNC(C)C)cc1 (stereo not shown),"Albumin (ALB, Bos taurus, UniProt P02769)",ultrafiltration,"Bos taurus, albumin solution","0.5 µg/mL, 60 min, together with: atractylenolide III 0.1 µg/mL",,unbound fraction,0.728

# A few entries again:
SMILES,target or system,assay,system,conditions,scale,quantity,result
O=C(c1cccnc1-c1ccncc1)N1CCC(O)(Cc2ccccc2)CC1,,,"healthy human, plasma","oral, 300 mg once daily, day 1, arithmetic mean",,AUCinf,2040 ng·h/mL
